# Experimental data pooled from the literature.
# Protocols differ between the studies behind these lines. “And” joins repeats or separate records; there may be more than shown. ± gives the spread as reported.
# Chain of UniProt P25021 (whole entry, looked up): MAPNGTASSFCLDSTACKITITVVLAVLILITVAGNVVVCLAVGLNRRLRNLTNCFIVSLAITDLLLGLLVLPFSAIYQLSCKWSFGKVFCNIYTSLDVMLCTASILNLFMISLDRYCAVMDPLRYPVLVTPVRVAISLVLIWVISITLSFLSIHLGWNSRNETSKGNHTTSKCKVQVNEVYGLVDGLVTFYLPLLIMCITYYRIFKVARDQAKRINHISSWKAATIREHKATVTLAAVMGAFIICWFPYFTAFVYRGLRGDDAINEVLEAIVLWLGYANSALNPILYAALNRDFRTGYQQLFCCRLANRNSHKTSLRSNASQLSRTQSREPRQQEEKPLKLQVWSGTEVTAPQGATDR
Compound,target or system,test,test system,setting,how to read,endpoint,result
CN1CCN(c2cc(-c3ccncc3)c(-c3ccc4ccccc4c3)nn2)CC1,"HRH2 (Homo sapiens, UniProt P25021)","antagonist, FLIPR",,10 µM,,inhibition,-5%
Cc1cccc(/C=N/Nc2cc(N3CCOCC3)nc(OCCc3ccccn3)n2)c1,293T-ACE2,,,40 (unit not given),,CC50,0.24 µM
CC[C@H](C)[C@@H]1NC(=O)[C@@H]2CCCN2C(=O)[C@H](CC(C)C)NC(=O)[C@H](CC(C)C)NC(=O)CNC(=O)[C@@H](NC(=O)[C@@H](NC(=O)[C@H](CC(=O)O)NC(=O)CNC(=O)[C@@H](NC(=O)[C@H](C)NC(=O)CNC(=O)[C@H](CCCCN)NC(=O)[C@H](CC(C)C)NC(=O)[C@H](CC(C)C)NC(=O)[C@H](CCCCN)NC(=O)CNC(=O)[C@@H](NC(=O)[C@@H](N)CC(C)C)C(C)C)C(C)C)C(C)C)CSSC[C@@H](C(=O)O)NC1=O,,"RNA-seq, item: Rhbdf2","mouse, traumatic brain injury model, frontal cortex and hippocampus",dose not given,reference: TBI alone,log2 fold change,-2.48
CN1CC[C@@H](c2c(O)cc(O)c3c(=O)cc(-c4ccc(C(F)(F)F)cc4Cl)oc23)[C@@H]1CO,,item: Anemia,relapsed or refractory haematological malignancies,"oral, dose not given, all grades",,adverse event incidence,22.5% and 22%
COc1cc2c(c(OC)c1OC)-c1ccc(OC)c(=O)cc1[C@@H](NC(C)=O)CC2,CHO-WBL,,,"8 µg/mL, 3 h, without S9",,micronuclei per binucleated cell,0.063
N=C(N)NCCC[C@H](NC(=O)[C@H](Cc1c[nH]c2ccccc12)NC(=O)[C@H](CCCNC(=N)N)NC(=O)[C@H](Cc1c[nH]c2ccccc12)NC(=O)[C@H](Cc1c[nH]c2ccccc12)NC(=O)[C@H](Cc1c[nH]c2ccccc12)NC(=O)[C@H](CCCNC(=N)N)NC(=O)[C@H](Cc1c[nH]c2ccccc12)NC(=O)[C@@H](N)CCCNC(=N)N)C(=O)N[C@@H](Cc1ccccc1)C(N)=O,HD11 macrophages,,,,,LC50,209 µM
C[C@H]1CN(c2n[nH]c3nc(N[C@H]4CC[C@H](NS(=O)(=O)CCC(F)(F)F)CC4)ncc23)CCO1,"Paxillin (PXN, Homo sapiens, UniProt P49023)","competitor, Kinobeads competition, item: PXN",human cell extract,0.8 µM,reference: vehicle,relative abundance,1.08
CC[C@H](C)[C@H](NC(=O)[C@@H](N)CC(N)=O)C(=O)N1CCC[C@H]1C(=O)N1CCC[C@H]1C(=O)N[C@@H](CC(C)C)C(=O)N[C@H](C(=O)N[C@@H](CCC(N)=O)C(=O)N[C@H](C(=O)N1CCC[C@H]1C(=O)N[C@H](C(=O)N[C@H](C(=O)N[C@H](C(=O)N1CCC[C@H]1C(=O)N1CCC[C@H]1C(=O)N[C@@H](Cc1ccccc1)C(=O)N[C@@H](CC(C)C)C(=O)N[C@@H](CCC(N)=O)C(=O)N1CCC[C@H]1C(=O)N[C@@H](CCC(=O)O)C(=O)O)C(C)C)C(C)C)C(C)C)[C@@H](C)O)[C@@H](C)O,Caco-2 monolayers,,,"10 µM, 15 min, 37 °C",,transport,0.05 ± 0.03%
C[C@@H](O)[C@H](NC(=O)[C@@H]1CSSC[C@H](NC(=O)[C@@H](Cc2ccccc2)NC(=O)CN2CCN(CC(=O)[O-])CCN(CC(=O)[O-])CCN(CC(=O)[O-])CC2)C(=O)N[C@@H](Cc2ccc(O)cc2)C(=O)N[C@H](Cc2c[nH]c3ccccc23)C(=O)N[C@@H](CCCCN)C(=O)N[C@@H]([C@@H](C)O)C(=O)N1)C(=O)O.[177Lu+3],MEC1,gamma counter,,60 min efflux after 2 h loading,,retention,32%
CCCCCc1nc(N)[nH]c(=O)c1Br,HEL human embryonic lung fibroblasts,cell morphology alteration,,,,minimum cytotoxic concentration,> 100 µM
CC(c1ccccc1)(c1ccc(O)cc1)c1ccc(O)cc1,HepG2 spheroids,annexin V-FITC/PI flow cytometry,,"1 µM, 96 h",,late apoptotic cells,33.6 ± 12.4%
CO[C@H]1C[C@@H]2CC[C@@H](C)[C@@](O)(O2)C(=O)C(=O)N2CCCC[C@H]2C(=O)O[C@H]([C@H](C)C[C@@H]2CC[C@@H](OC(=O)NCCOCCOCCOCCOCCOCCOCCOCCOCCC(=O)N3CCc4cc(Cn5nc(-c6ccc7oc(N)nc7c6)c6c(N)ncnc65)ccc4C3)[C@H](OC)C2)C[C@@H](O)[C@H](C)/C=C(\C)[C@@H](O)[C@@H](OC)C(=O)[C@H](C)C[C@H](C)/C=C/C=C/C=C/1C,,,patients with advanced solid tumours,"intravenous, 6 mg weekly, any grade",,AE leading to dose interruption,66.7%
N#CCc1c[nH]c2ccccc12,uninfected HCT-8,"cytotoxicity, Hoechst nuclei count",,,,EC50,1590 µM
O=c1ccc2ccccc2o1,NHEK,cell count,,"concentration not given, 6 h, NRF2 oxidative stress panel",,chance response,3.07%
CC(C)C[C@H](NC(=O)[C@H](CCCNC(=N)N)NC(=O)[C@H](Cc1c[nH]c2ccccc12)NC(=O)[C@H](CCCNC(=N)N)NC(=O)[C@H](Cc1c[nH]c2ccccc12)NC(=O)[C@H](Cc1c[nH]c2ccccc12)NC(=O)[C@H](Cc1c[nH]c2ccccc12)NC(=O)[C@H](CCCNC(=N)N)NC(=O)[C@H](Cc1c[nH]c2ccccc12)NC(=O)[C@H](CCCNC(=N)N)NC(=O)CN)C(N)=O,HD11 macrophages,,,,,LC50,> 512 µM
Cc1cc(C(C)(C)c2ccc(O)c(C)c2)ccc1O,"HepG2 spheroids, dissociated",annexin V-FITC/PI flow cytometry,,"0.10 µM, 96 h",,viable cells,43.5 ± 8.22%
O=S(=O)(O)C(F)(F)C(F)(F)C(F)(F)C(F)(F)C(F)(F)C(F)(F)C(F)(F)C(F)(F)F,hTERT-RPTEC parental,LDH release,culture medium,"concentration not given, 24 h, 96-well plate",,LDH activity in medium,24.7 mU/mL
Nc1cnn(-c2ccccc2)c(=O)c1Cl,HEK293-H PPARγ-UAS-bla cells,"cell confluency, IncuCyte imaging",,"24 h, nominal concentration",,IC10,830 µM
O=C(O)C(F)(F)C(F)(F)C(F)(F)C(F)(F)C(F)(F)F,hTERT-RPTEC parental,,,"concentration not given, 96-well plate",,LDH release,28.9 mU/mL and 28.6 mU/mL and 29.5 mU/mL and 29.9 mU/mL
CC(C)(Oc1ccc(Cl)cc1)C(=O)O,HEK293-H PPARγ-UAS-bla cells,"cell viability, IncuCyte imaging",,"24 h, freely dissolved concentration",,IC10,2450 µM
COc1ccc(N2C(=O)N(c3c(C)cccc3Cl)Cc3cnc(Nc4ccc(C5CCN(C)CC5)cc4OC)nc32)nc1,"MAP2K2 (Homo sapiens, UniProt P36507)","kinase activity, inhibitor",,"0.5 µM, MEK2",,inhibition,3%
N=C(N)NCCC[C@H](NC(=O)[C@H](CCCNC(=N)N)NC(=O)[C@H](CCCNC(=N)N)NC(=O)[C@H](CCC(N)=O)NC(=O)[C@H](CCCNC(=N)N)NC(=O)[C@H](CCCNC(=N)N)NC(=O)[C@H](CCCCN)NC(=O)[C@H](CCCCN)NC(=O)[C@H](CCCNC(=N)N)NC(=O)CNC(=O)[C@@H](N)Cc1ccc(O)cc1)C(=O)O,DF-1,,,"25 µM, 12 h",reference: untreated cells,viability,104.9 ± 0.29%

# Repeated from above:
Compound,target or system,test,test system,setting,how to read,endpoint,result
Cc1cccc(/C=N/Nc2cc(N3CCOCC3)nc(OCCc3ccccn3)n2)c1,293T-ACE2,,,40 (unit not given),,CC50,0.24 µM
O=S(=O)(O)C(F)(F)C(F)(F)C(F)(F)C(F)(F)C(F)(F)C(F)(F)C(F)(F)C(F)(F)F,hTERT-RPTEC parental,LDH release,culture medium,"concentration not given, 24 h, 96-well plate",,LDH activity in medium,24.7 mU/mL
O=C(O)C(F)(F)C(F)(F)C(F)(F)C(F)(F)C(F)(F)F,hTERT-RPTEC parental,,,"concentration not given, 96-well plate",,LDH release,28.9 mU/mL and 28.6 mU/mL and 29.5 mU/mL and 29.9 mU/mL
